Results gathered from unrelated publications.
Numbered parts are unrelated; each lists some results of a single study.

Series 1
Target: RING finger protein unkempt homolog, zinc fingers 1-6, GST-SBP tag (UNK, Homo sapiens, UniProt Q9C0B0, residues 30-357)
Method: RNA Bind-n-Seq
Molecule type: RNA
Sample: in vitro
Concentration: not given
Setting: RNA with constant flanks, human and mouse sites, ends assumed
Reference: input RNA pool
Direction: higher = stronger binding
Constant ends, left off below: GGGAGUUCUACAGUCCGACGAUC … CAACAGAGGAUUGAGCAUCA
Target sequence (chain): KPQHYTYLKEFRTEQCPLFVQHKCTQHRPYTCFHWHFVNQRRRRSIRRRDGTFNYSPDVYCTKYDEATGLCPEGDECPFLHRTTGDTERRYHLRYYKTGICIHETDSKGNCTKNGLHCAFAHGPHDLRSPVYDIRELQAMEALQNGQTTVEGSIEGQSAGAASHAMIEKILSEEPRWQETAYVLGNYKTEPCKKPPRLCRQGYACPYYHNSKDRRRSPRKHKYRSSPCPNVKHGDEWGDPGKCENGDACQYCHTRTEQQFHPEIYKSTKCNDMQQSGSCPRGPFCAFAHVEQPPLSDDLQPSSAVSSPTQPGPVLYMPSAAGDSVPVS
| Sequence | bound/input enrichment [ratio] |
| --- | --- |
| GCCGGAGAUGCCCUGGAUGGCGGCUUUCAGGCGCGGUGUGAGAAGAGCCCUUUCGACCAGCUAGCUUUUAUCGAAGAGCUGUUUUCGCUGAUGGUUGUCAAUCGACUGACCGAAGAGCUC | 0.273 |
| AGCCUGUGCCCUUUUGCCUUCUGGGCCCGUAUAUGGGUCUUUGCUUGACCAAAGAGGAUCACAUGUUACUCCUUUCUGCACGGCCUUUAUCCUGCGGGCUCCCAGGGCAGGGACCUGAGC | 0.116 |
| CAUGUCACAAAGUUUUUUAACUAUAAGGUUGUAUUGCUGGGAAAAUACAACGCACAAGGCCUGGGCGCAGACCAUGAGUUGAUGCUGAGGUGCACCAGAGGACAAGAGUAUGUCAAAGUC | 0.323 |
| UUAAGGGAAAUUUUUGAGGCAAAAGGCAAAUGUUUUGGUUCAAACCUAUGAGCAAAGUCAUUUAGAGAAUUGAAGAUAGUAUUAAAACCUUGAGACUCUUGCAAUAAAAAUAUCAGACCA | 4.09 |
| AUGUCAGAUCUCUUCAACAAACUUGUCAUGAGGCGCAAAGGUAUCUCUGGAAAGGGACCUAGCACUGGAACCAGUGAGGGACCUGGAGGAGCCUUCUCUCGAAUGUCAGACUCCAUCCCA | 0.0647 |
| CCACGCUGUGGUUUCAGCAAGCAGAUGGUGGAAAUCCUUCACAAACACAAUAUUCAGUUCAGCAGCUUUGAUAUCUUCUCAGAUGAAGAAGUUCGACAGGGGCUCAAAACGUACUCUAAU | 0.0839 |
| CAGAGAAAUCACCUUAAUGCAGUCUCUUUAGUUGUCUGCUGAAGCUGUAGUUAUUAUGGGCCACUUACAUGAGGCUGAGAAGUACGUGCCGGAGCUCACACACUGCCUGUUGCGGUUCUC | 0.135 |
| ACGAACUUUCAGGCAACACCGUUAUUGAACGACCCAGACAGAUCUGUCCUUAUGUAAUUGUAGCUUUUCGAUACAGGGAAUCUAAAACUAUGGCACCACCAGCUCAUAAAAGCAUACUUG | 0.236 |

Series 2
Target: Interferon regulatory factor 7, full length, phosphomimetic (IRF7, Homo sapiens, UniProt Q92985, residues 1-503, S101K/S471D/S472D/S475D/S476D/S477D/S483D/S484D/S487D)
UniProt Q92985, sequence (whole entry, unmodified, looked up): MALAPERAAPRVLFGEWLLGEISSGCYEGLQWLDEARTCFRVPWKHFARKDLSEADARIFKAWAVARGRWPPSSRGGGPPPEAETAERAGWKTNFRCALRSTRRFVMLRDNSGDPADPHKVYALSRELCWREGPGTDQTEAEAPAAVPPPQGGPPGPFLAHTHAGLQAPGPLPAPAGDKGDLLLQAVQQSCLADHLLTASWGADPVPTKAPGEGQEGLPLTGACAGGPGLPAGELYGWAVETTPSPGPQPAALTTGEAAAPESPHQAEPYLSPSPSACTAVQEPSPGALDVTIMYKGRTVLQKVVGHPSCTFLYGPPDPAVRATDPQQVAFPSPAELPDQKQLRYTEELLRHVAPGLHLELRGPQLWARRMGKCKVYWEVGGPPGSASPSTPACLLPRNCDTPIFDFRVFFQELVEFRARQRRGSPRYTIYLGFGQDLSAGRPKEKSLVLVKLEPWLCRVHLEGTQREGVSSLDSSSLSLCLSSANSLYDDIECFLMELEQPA
Method: protein-binding microarray
Molecule type: double-stranded DNA, one strand shown
Sample: in vitro
Concentration: 250 nM
Setting: 60-bp whole probe
With: salmon DNA 0.4 mg/ml
Reference: random background probes
Direction: higher = stronger binding
Constant ends, left off below: GCCTAGCAC … GTCTTGATTCGCTTGACGCTGCTG
| Sequence | log fluorescence [z-score] |
| --- | --- |
| TTAGGTTTCCTTTCCCTTCAGTGCTAG | 4.42 |
| TTAGGACTGGGTCTCGTTTAGTGCTAG | 1.57 |
| GACGGTATCGGGACTGGGCACGTGCTA | -0.405 |
| TTAGGTTTCCAACTGCTTTAGTGCTAG | 1.3 |
| TTAGGTCTGGGTCTCGGTTAGTGCTAG | 0.681 |
| GACGAACTGATTATCGAGACGTGCTAG | 0.0615 |
| TTACGTTTCGGGACTGGGTTAGTGCTA | 1.65 |
| AGATTCCTCTCACCTCGGCCTGTGCTA | 0.988 |
| TTAGGTCTCAGTTTCGATTAGTGCTAG | 8.89 |
| TCAGTTACCCCTCATCAAACTGTGCTA | 0.564 |
| GACGGTTCCAGTTTCGAGACGTGCTAG | 4.88 |
| CTACGCCTGCAGGTGAGCCGGTGCTAG | -0.445 |
| GACGGACTGCTACTGCTAACGTGCTAG | -0.868 |
| CAGCACATGCATCTCCCACAGTGCTAG | -0.286 |
| TTAGGACTGTTTTTCCTTTAGTGCTAG | 2.01 |
| TTAGGGTTCGGGACTGGGTTAGTGCTA | 0.271 |

Series 3
Target: RNA binding protein fox-1 homolog 2, RRM domain, GST-SBP tag (RBFOX2, Homo sapiens, UniProt O43251-10, residues 100-194)
Method: RNA Bind-n-Seq
Molecule type: RNA
Sample: in vitro
Concentration: 365 nM
Setting: natural RNA segment, single round, ends assumed
Reference: no-protein control
Direction: higher = stronger binding
Constant ends, left off below: GGGAGUUCUACAGUCCGACGAUC … UGGAAUUCUCGGGUGCCAA
Target sequence (chain): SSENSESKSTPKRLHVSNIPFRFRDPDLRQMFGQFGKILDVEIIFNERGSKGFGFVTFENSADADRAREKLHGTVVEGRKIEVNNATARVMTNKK
| Sequence | RBNS enrichment (R) |
| --- | --- |
| UCUUUCAAUGCCUAAGUGUCUUCUUCUAUCACUCCACACCCACAGUUGCCACUUGGGGUGCACAGAUAAGGGUAGGUCACCAACUGAUUAUGCCUGUCUCUGAGCCAUGC | 0.764 |
| GUGAACAACAGUUGGUUUAAAAUAUGAGGGGCAAGGAGGAGGAUGCAUUUCAAAAGCUUGAUUGAUGUGUUCAGAGCUAAAUUAAGAGGAGUUUUCAGAUCAAAAACUGG | 5.7 |
| UUGGGGGCCUACUUCUUCAUGGAAGAAUUACUUUUAUUCUCAAACUACAGAAUAAUGUGCUAAGUAGUGCUAAAUAGUUCUUGACGAAGAAAACAGUCACUGCAUUUAUC | 0.629 |
| UUGGGGUAGGGAUUUCUGUCUUAUUUUCAAAUAGCCAGGGUUUUUCUUCAUUUUUUUGGUAUUUGCAUAAAGUGAACAAUAUCACAAGAAUUAAAUCACUGUGGACCCAU | 0.381 |
| GAUUUCAAGAAAGCCUCUUCUUGUUGCCUAGCUGAGUGGGAGAGUCAUUUUCCCCAGACACUACAUUUGGAUACAGGUGCCAAAGAACAUUAUUAAGGAAUUAUUUAGAA | 0.456 |
| GCUGACCUCAGGGCCUGACAGUGUGGGACAGGCUCUUCUUUCCCAAAAUUAGGGAGCUCUUGACAGAAAGCAGUUCUGAUGCUUACAUCUGGAAUCUGAGGCAUCCUCUG | 0.359 |
| UUUCUAUCUGAGAGGUCCUAACCAUUACAGCUAUCACCCCUCGGCUGACAUGGUCUUUCAAGAUUCUUAGUAGGUCUCUCAGAAGCCAGUUCAUCUGGCCUUAACUGAAU | 0.22 |
| CUACUACUACUGAGAAGCUAAUUCUUGACCUGUGAUUGUGAUUGAUUACCUGAUAUCUAGAUAUAUAAUUAUAUGUGUGAAUAAAUGUGACAGAACUUGAUUAUUUCAUC | 0.528 |

Series 4
Target: Sal-like protein 4, full length isoform B (SALL4, Homo sapiens, UniProt Q9UJQ4-2, residues 1-616)
Method: universal PBM
Molecule type: double-stranded DNA, one strand shown
Sample: in vitro
Concentration: not given
Setting: 8-mer, flanks averaged, mean of replicates
Direction: higher = stronger binding
| Sequence | E-score |
| --- | --- |
| AACCTCTG | -0.0632 |
| AATGGTGT | 0.139 |
| ACAGCACA | 0.0291 |
| GGGTAGTA | 0.00616 |
| CAAGAAAC | 0.0263 |
| AATGTGAA | 0.341 |
| ATGGCGTC | -0.168 |
| CCACTTAG | -0.0813 |
| TTCACCAA | 0.0853 |
| ACATCAGC | -0.0529 |
| GACCTGGA | -0.105 |
| CGGTTTCC | -0.263 |
| ACTAACCA | 0.0304 |
| AATGAAAC | 0.178 |
| AGAATTGC | 0.0583 |
| AAGTAATA | 0.311 |
| CTTCCTCC | -0.253 |
| GAACTGTA | 0.223 |
| GACTCTGA | -0.0449 |
| ATTTCTAA | 0.212 |
| GTTGGATA | 0.141 |
| AAATGATC | 0.118 |
| AGCTTATG | 0.127 |
| AGATGGGG | -0.196 |

For quick reference, copied from above (series 4):
| Sequence | E-score |
| --- | --- |
| ACAGCACA | 0.0291 |
| ATTTCTAA | 0.212 |
| AACCTCTG | -0.0632 |
| AAATGATC | 0.118 |
| AGATGGGG | -0.196 |
